Published values gathered from unrelated publications.
Compare with care: the assays were run in different laboratories. Numbers after ± are the reported error. Non-standard residues stand in square brackets, D forms with d. No end group written: not given here. The star is where a group is joined.
CNR2: Cannabinoid receptor 2 (CNR2, Homo sapiens, UniProt P34972)
Sequence of UniProt P34972 (whole entry, looked up): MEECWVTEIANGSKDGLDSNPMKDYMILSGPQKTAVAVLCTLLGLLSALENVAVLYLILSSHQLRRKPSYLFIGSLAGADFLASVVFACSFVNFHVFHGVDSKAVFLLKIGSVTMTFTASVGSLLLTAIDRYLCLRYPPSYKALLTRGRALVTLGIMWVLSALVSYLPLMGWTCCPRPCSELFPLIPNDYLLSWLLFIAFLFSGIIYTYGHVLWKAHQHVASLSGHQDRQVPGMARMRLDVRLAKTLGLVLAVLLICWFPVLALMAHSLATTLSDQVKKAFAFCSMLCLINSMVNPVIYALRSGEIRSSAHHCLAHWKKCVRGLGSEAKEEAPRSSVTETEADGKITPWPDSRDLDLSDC
ESR1: Estrogen receptor (ESR1, Homo sapiens, UniProt P03372)
Sequence of UniProt P03372 (whole entry, looked up): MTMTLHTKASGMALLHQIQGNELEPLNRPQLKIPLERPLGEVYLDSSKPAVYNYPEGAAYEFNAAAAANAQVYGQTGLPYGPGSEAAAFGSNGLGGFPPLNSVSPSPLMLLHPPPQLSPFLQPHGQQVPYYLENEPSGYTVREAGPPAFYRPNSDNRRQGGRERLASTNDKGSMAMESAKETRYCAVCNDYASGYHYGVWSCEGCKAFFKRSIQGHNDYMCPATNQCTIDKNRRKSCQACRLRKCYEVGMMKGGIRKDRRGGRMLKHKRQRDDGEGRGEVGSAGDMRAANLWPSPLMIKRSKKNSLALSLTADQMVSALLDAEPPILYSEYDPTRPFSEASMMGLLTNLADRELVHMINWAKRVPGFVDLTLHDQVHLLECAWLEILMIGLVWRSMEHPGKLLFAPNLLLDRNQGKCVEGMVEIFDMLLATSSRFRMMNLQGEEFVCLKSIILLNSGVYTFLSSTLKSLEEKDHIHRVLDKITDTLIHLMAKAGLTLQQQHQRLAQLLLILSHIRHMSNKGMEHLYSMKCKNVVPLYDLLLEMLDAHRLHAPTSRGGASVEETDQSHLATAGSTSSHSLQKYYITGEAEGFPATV
CSK: Tyrosine-protein kinase CSK (CSK, Homo sapiens, UniProt P41240)
Sequence of UniProt P41240 (whole entry, looked up): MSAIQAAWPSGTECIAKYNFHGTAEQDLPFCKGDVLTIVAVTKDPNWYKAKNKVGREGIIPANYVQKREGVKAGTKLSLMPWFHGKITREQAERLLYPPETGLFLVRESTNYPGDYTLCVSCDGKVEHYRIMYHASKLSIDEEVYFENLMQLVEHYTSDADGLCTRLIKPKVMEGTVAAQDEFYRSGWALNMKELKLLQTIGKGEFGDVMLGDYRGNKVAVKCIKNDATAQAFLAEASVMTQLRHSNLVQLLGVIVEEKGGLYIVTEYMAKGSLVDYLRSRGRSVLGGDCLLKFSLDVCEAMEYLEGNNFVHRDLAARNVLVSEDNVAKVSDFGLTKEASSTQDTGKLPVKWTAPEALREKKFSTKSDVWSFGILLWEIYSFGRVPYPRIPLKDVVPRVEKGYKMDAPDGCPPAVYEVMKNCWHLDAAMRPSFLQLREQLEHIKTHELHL
ESR2: Estrogen receptor beta (ESR2, Homo sapiens, UniProt Q92731)
Sequence of UniProt Q92731 (whole entry, looked up): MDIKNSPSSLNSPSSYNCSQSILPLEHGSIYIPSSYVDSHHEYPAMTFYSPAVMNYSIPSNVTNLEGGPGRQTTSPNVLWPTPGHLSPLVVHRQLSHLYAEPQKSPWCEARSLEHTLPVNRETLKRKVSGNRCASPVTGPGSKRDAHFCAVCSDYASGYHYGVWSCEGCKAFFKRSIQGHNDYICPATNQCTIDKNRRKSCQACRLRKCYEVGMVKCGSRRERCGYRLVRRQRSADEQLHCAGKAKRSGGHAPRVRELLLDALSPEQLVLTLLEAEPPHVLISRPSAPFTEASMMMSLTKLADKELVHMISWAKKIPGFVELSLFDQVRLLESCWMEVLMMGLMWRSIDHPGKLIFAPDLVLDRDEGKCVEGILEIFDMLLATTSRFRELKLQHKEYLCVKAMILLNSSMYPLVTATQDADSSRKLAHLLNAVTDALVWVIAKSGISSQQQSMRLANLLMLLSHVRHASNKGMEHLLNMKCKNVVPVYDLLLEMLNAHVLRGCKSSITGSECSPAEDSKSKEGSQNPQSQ
Kelch domain-containing protein 2: Kelch domain-containing protein 2 (UniProt Q9Y2U9)
Sequence of UniProt Q9Y2U9 (whole entry, looked up): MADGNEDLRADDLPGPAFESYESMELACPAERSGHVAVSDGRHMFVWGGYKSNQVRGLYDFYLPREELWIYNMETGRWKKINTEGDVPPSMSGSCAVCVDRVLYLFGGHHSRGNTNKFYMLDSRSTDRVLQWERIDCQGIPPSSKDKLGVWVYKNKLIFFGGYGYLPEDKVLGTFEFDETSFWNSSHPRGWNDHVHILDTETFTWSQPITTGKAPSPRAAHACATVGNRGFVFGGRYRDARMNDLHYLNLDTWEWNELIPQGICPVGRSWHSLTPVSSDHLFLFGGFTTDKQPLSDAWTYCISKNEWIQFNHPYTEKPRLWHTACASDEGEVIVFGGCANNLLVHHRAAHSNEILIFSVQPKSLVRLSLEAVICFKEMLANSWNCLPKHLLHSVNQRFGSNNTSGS
Sequence of UniProt P00330 (whole entry, unmodified, looked up): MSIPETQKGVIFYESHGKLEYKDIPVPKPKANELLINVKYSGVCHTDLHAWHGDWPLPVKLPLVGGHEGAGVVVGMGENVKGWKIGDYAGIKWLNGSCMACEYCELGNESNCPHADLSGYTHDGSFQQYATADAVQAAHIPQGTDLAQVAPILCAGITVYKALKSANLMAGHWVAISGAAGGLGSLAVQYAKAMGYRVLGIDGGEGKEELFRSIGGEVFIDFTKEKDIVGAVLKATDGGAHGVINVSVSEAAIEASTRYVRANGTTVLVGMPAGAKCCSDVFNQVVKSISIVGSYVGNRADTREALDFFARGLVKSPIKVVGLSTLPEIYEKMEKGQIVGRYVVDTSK
Sequence of UniProt P35372 (whole entry, looked up): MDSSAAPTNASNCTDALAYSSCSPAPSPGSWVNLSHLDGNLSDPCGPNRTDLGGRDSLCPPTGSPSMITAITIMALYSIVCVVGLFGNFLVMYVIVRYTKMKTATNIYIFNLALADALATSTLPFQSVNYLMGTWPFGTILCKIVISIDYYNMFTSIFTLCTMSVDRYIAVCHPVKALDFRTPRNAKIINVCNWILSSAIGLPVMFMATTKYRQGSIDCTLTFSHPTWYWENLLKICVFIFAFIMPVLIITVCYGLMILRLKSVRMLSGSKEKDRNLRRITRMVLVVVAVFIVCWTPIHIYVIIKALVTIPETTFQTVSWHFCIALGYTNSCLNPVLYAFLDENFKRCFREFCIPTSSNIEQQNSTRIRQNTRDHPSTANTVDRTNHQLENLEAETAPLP
Sequence of UniProt P0ABB4 (whole entry, looked up): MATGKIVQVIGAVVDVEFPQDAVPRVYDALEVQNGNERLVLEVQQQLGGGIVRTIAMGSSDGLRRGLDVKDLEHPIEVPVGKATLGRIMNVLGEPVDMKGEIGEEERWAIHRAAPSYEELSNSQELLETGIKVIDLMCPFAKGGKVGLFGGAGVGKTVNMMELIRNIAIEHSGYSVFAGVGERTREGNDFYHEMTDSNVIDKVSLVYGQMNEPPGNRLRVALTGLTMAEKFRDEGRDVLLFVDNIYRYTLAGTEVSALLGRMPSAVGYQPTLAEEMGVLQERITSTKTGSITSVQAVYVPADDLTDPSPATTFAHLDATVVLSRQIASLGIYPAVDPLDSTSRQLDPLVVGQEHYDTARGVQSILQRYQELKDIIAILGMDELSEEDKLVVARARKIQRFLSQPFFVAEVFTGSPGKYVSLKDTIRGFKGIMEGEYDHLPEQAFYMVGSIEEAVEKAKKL
Sequence of UniProt O95476 (whole entry, looked up): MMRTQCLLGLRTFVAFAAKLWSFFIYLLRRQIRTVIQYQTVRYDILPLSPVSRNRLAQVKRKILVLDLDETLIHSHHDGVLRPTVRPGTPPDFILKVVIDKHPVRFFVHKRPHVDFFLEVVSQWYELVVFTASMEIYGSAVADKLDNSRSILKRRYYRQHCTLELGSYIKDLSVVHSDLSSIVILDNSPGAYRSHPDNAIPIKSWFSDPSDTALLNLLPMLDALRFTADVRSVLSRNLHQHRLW
Sequence of UniProt P42574 (whole entry, looked up): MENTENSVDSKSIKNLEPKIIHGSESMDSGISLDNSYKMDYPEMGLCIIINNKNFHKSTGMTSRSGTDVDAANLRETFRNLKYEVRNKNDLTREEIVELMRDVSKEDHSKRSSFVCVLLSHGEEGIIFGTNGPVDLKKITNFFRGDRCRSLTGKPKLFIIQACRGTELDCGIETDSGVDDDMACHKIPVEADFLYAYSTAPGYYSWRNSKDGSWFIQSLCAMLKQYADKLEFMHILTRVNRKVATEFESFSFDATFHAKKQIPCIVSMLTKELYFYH
Sequence of UniProt P08913 (whole entry, looked up): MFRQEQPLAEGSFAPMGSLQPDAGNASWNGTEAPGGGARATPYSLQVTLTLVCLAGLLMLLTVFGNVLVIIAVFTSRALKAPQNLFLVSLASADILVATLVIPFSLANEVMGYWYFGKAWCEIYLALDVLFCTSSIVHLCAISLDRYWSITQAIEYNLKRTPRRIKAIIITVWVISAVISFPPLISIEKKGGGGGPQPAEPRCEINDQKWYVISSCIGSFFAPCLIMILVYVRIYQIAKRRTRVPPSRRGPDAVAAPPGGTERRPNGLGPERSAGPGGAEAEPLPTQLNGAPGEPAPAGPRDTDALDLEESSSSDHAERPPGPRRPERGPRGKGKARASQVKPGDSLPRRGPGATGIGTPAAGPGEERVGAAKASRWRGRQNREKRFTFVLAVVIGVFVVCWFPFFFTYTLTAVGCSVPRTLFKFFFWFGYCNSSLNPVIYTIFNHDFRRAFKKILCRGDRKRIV
Sequence of UniProt Q8GZB4 (whole entry, looked up): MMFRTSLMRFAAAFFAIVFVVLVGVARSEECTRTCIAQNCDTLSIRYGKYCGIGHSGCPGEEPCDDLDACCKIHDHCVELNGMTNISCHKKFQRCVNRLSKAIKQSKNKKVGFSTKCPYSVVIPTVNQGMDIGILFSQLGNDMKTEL

| Molecule | target | test | system | setting | scale | measurement | result |
| --- | --- | --- | --- | --- | --- | --- | --- |
| Ac-LDEVD-pNA (N-acetyl, C-pNA; pNA = O=[N+]([O-])c1ccc(N*)cc1) | Caspase-3 (CASP3, Homo sapiens, UniProt P42574) | substrate hydrolysis, substrate, colorimetric | – | pH 7.5 | – | kcat/Km | 31700 ± 1670 M⁻¹ s⁻¹ |
| O[C@@H](CN1CC[C@H](CCOC(c2ccccc2)c2ccccc2)[C@@H](O)C1)c1ccc(F)cc1 | Sodium-dependent serotonin transporter (Slc6a4, Rattus norvegicus, UniProt P31652) | serotonin uptake, inhibitor | rat cerebral cortex | with: [3H]5-HT | – | Ki | 402 nM |
| CCOC(=O)OC(=O)OCC | ADH1 (Saccharomyces cerevisiae, UniProt P00330, H49Q) | enzyme activity, inactivator | – | 90 µM, pH 8.0, 30 °C, turnover number | – | remaining activity | 54 s⁻¹ |
| COc1cccc2c1cc([N+](=O)[O-])c1c(C(=O)O)cc3c(c12)OCO3 | Phospholipase A2-beta (PLA2-BETA, Arabidopsis thaliana, UniProt Q8GZB4) | enzyme activity, inhibitor, radiolabelled PC hydrolysis, refers to: released fatty acid | – | 20 µM, 40 min preincubation, pH 8.0, 40 °C, with: 1-palmitoyl-2-[14C]palmitoyl-PC | relative to: untreated | remaining activity | 38 ± 1.8% |
| NC(=O)CN1CCC[C@@H](NC(=O)c2nn(Cc3ccc(F)cc3)c3ccccc23)C1 | CNR2 | calcium mobilization, agonist | CHO-K1 expressing Gαq16 | – | relative to: CP55,940 maximum | Emax | 93 ± 7% |
| Oc1ccc(-c2ccc(-c3ccc(O)cc3F)[se]2)c(F)c1 | ESR1 | antagonist | HEK293T | highest tested concentration, with: estradiol 10 nM | relative to: estradiol alone | efficacy | 59 ± 10% |
| CCOC(=O)CN(CCN(CCN(CC(=O)O)CC(=O)O)CC(=O)O)CC(=O)O | americium(III) | americium-241 binding, solvent extraction | – | pH 1.3 | relative to: compound over DTPA, higher = weaker binding | ligand concentration ratio | 5 fold |
| Cc1cccc(Oc2ccc(C(=O)N[C@H](CN3CCN(c4cccc(O)c4)[C@@H](C)C3)C(C)C)cc2)c1 | Kappa-type opioid receptor (OPRK1, Homo sapiens, UniProt P41145) | antagonist | CHO | with: U69593 | – | Ke | 0.17 ± 0.04 nM |
| COc1cccc2c1C(=O)c1c(O)c3c(c(O)c1C2=O)C[C@@](O)(C(C)=O)C[C@@H]3O[C@H]1C[C@H](N)[C@H](O)[C@H](C)O1 | Organic cation/carnitine transporter 2 (SLC22A5, Homo sapiens, UniProt O76082) | transporter uptake, inhibitor | – | 100 µM | – | inhibition | 13.7% |
| FEDSIYADIFIEE | CSK | substrate, coupled enzyme | peptide | pH 7.4, room temperature, with: 1 mM ATP, 5 mM MnCl2 | – | kcat/Km | 320 M⁻¹ s⁻¹ |
| Oc1ccc(-c2c[se]cc2-c2ccc(O)c(F)c2)cc1F | ESR2 | antagonist | HEK293T | highest tested concentration, 24 h, with: estradiol 10 nM | relative to: estradiol alone | efficacy | 10 ± 7% |
| CC[C@H](C)[C@H](NC(=O)[C@H](CCCCN)NC(=O)[C@H](Cc1ccccc1)NC(=O)[C@H](CCCCNC(=O)[C@H](CC(C)C)NC(=O)[C@@H]1CCCN1C(=O)[C@H](CCCCN)NC(=O)CCS[C@@H]1O[C@H](CO)[C@H](O)[C@H](O)[C@H]1O)NC(=O)[C@H](CC(C)C)NC(=O)[C@@H]1CCCN1C(=O)[C@H](CCCCN)NC(=O)CCS[C@@H]1O[C@H](CO)[C@H](O)[C@H](O)[C@H]1O)C(N)=O | PA-I galactophilic lectin (lecA, Pseudomonas aeruginosa, UniProt Q05097) | isothermal titration calorimetry | – | pH 7.5, 25 °C, with: 25 mM CaCl2 | – | ΔG | -7.6 ± 0.1 kcal/mol |
| AWSHPQFEKGGGSGGG | Kelch domain-containing protein 2 | native mass spectrometry | peptide, 200 mM ammonium acetate | 20 µM Kelch domain-containing protein 2, pH 7 | relative to: total Kelch domain-containing protein 2 signal | fraction of protein bound | 0.5% |
| FEEPIYIEPIDFE | CSK | substrate, coupled enzyme | peptide | pH 7.4, room temperature, with: 1 mM ATP, 5 mM MnCl2 | – | kcat/Km | 1400 M⁻¹ s⁻¹ |
| CC[C@H]1O[C@]2(C)[C@H](OC(C)=O)[C@@]1(C)O[C@@H](/C=C/C=C/C=C/c1oc(=O)cc(OC)c1C)[C@@H]2O | atpD, in F1Fo complex (Escherichia coli, UniProt P0ABB4) | ATP hydrolysis, single-molecule FRET | liposome-reconstituted F1Fo-ATPase | 20 µM, with: 1 mM ATP | – | mean dwell time | 42 ms |
| O=Cc1ccc(CO)o1 | Hemoglobin subunit alpha, with beta chain (HBA1, Homo sapiens, UniProt P69905) | kinetic binding, cation-exchange HPLC | – | 37 °C | – | koff | 3.61e-05 s⁻¹ |
| LRELPPEERPAAGA | Kelch domain-containing protein 2 | native mass spectrometry | peptide, 200 mM ammonium acetate | 20 µM Kelch domain-containing protein 2, pH 7 | relative to: total Kelch domain-containing protein 2 signal | fraction of protein bound | 0.5% |
| O=c1c2ccccc2nc(/C=C/c2cccnc2)n1Cc1ccccc1 | rabbit myokinase, pyruvate kinase, lactate dehydrogenase | coupled enzyme activity, promiscuity counterscreen | – | 90 min preincubation | – | lowest inhibitory concentration | > 12.5 µM |

| Molecule | target | test | system | setting | scale | measurement | result |
| --- | --- | --- | --- | --- | --- | --- | --- |
| CNc1ccc2oc(C[C@H]3O[C@@]4(CC[C@H]3C)O[C@H]([C@H](C)C(=O)c3ccc[nH]3)[C@H](C)C[C@H]4C)nc2c1C(=O)O | Yes kinase, rat | refers to: Yes pY416 | – | 1 µM, 5 min | relative to: untreated control | phosphorylation level | 137 ± 18% |
| DDFFVGRVGG | Kelch domain-containing protein 2 | native mass spectrometry | peptide, 200 mM ammonium acetate | 20 µM Kelch domain-containing protein 2, pH 7 | relative to: total Kelch domain-containing protein 2 signal | fraction of protein bound | 0.8% |
| CC12CC3CC1(C)C1(C)CC3(N)CC21C.Cl | Glutamate NMDA receptor; Grin1/Grin2a (Grin1/Grin2a, Rattus norvegicus, UniProt P35439+Q00959) | NMDA current unblock, whole-cell patch clamp | tsA201 cells | 10 µM, holding potential -60 mV, with: 100 µM NMDA plus 10 µM glycine | – | current recovery after washout | 94.9 ± 2.2% |
| CCCCN1[C@@H]2CC[C@H]1CC(OC(c1ccc(F)cc1)c1ccc(F)cc1)C2 (some centres unmarked) | Sodium-dependent dopamine transporter (SLC6A3, Homo sapiens, UniProt Q01959, A479V/A480V) | [3H]CFT competition | COS-7 transfected | A479V-A480V mutant | relative to: mutant over wild type | affinity loss | ~10 fold |
| NWFDRSHTLFHS | HIV-1 neutralising antibody 4E10 | phage binding, M13 phage ELISA | peptide | concentration not given | lower = stronger binding | binding titer | 2e+08 M13/mL |
| Cc1cc(-c2cc(-c3ccc(O)c(C)c3)c(-c3ccc(O)c(C)c3)[se]2)ccc1O | ESR2 | antagonist | HEK293T | highest tested concentration, 24 h, with: estradiol 10 nM | relative to: estradiol alone | efficacy | 82 ± 2% |
| cAMP | Potassium/sodium hyperpolarization-activated cyclic nucleotide-gated channel 2, C-terminal region (Hcn2, Mus musculus, UniProt O88703, R635A) | isothermal titration calorimetry | – | R635A, high-affinity site | – | stoichiometry | 0.35 ± 0.02 |
| YKKRLTVELT | Serine/threonine-protein kinase PAK 4 (PAK4, Homo sapiens, UniProt O96013) | kinase activity, substrate | peptide | – | – | kcat/Km | 9 ± 6 M⁻¹ s⁻¹ |
| COc1cc2c(cc1OC)C(=O)C(CC1CCN(Cc3ccccc3)CC1)C2 (centres unmarked) | Liver carboxylesterase 1 (CES1, Homo sapiens, UniProt P23141) | irreversible inhibitor | – | 5× IC50 or 200 µM, 1 h, preincubation then inhibitor removal, with: o-nitrophenyl acetate substrate | – | remaining activity | 0% |
| Cc1cc(C(=O)N[C@H](CN2CCN(c3cccc(O)c3)[C@@H](C)C2)C(C)C)ccc1Oc1ccccc1 | Mu-type opioid receptor (OPRM1, Homo sapiens, UniProt P35372) | antagonist | CHO | with: DAMGO | – | Ke | 15 ± 2 nM |
| CC1N=C(c2ccccc2F)c2cc(Nc3ccc(O)cc3)ccc2NC1=O (centres unmarked) | Alpha-2A adrenergic receptor (ADRA2A, Homo sapiens, UniProt P08913) | ligand displacement, radioligand | – | 10 µM | – | inhibition | 36% |
| Oc1cc(-c2cc(Br)c(-c3ccc(F)c(O)c3)[se]2)ccc1F | ESR1 | antagonist | HEK293T | highest tested concentration, with: estradiol 10 nM | relative to: estradiol alone | efficacy | 127 ± 42% |
| CC=O | ADH1 (Saccharomyces cerevisiae, UniProt P00330, T46G) | reduction, substrate | – | – | relative to: wild type over mutant | V/K decrease | 8400 fold |
| CC(C)C[C@H](NC(=O)CNC(=O)[C@H](CC(C)C)NC(=O)[C@@H]1CCCN1C(=O)Cc1ccc2ccc3cccc4ccc1c2c34)C(=O)N[C@@H](CCCNC(=N)N)C(=O)N[C@@H](CO)C(=O)N[C@@H](CCCCN)C(=O)O | Matrix metalloproteinase-9 (MMP9, Homo sapiens, UniProt P14780) | substrate, HPLC | – | 500 µM, 72 h, pH 7.5, 37 °C | – | hydrolysis product | 59% |
| CC(C)(CN1CCC[C@H]1C(N)=O)NC(=O)c1nn(Cc2ccc(F)cc2)c2ccccc12 | CNR2 | calcium mobilization, agonist | CHO-K1 expressing Gαq16 | – | relative to: CP55,940 maximum | Emax | 68 ± 9% |
| DNMNT[pS]EDE (phospho-Ser6; pS = N[C@@H](COP(=O)(O)O)C(=O)O) | CTD nuclear envelope phosphatase 1 (CTDNEP1, Homo sapiens, UniProt O95476) | substrate, MESG-coupled phosphate release | – | 25 °C | – | kcat | > 1 s⁻¹ |
| Oc1c(Cl)cc(-c2ccc(Cl)cc2Cl)cc1Cl | Aequorin-1 (Aequorea victoria, UniProt P07164, C152S/C159S/C187S) | aequorin bioluminescence, inhibitor | – | 2 h, with: coelenterazine | – | detection limit | 3.3 µM |

A few entries again:
| Molecule | target | test | system | setting | scale | measurement | result |
| --- | --- | --- | --- | --- | --- | --- | --- |
| CC1N=C(c2ccccc2F)c2cc(Nc3ccc(O)cc3)ccc2NC1=O (centres unmarked) | Alpha-2A adrenergic receptor (ADRA2A, Homo sapiens, UniProt P08913) | ligand displacement, radioligand | – | 10 µM | – | inhibition | 36% |
| CCOC(=O)CN(CCN(CCN(CC(=O)O)CC(=O)O)CC(=O)O)CC(=O)O | americium(III) | americium-241 binding, solvent extraction | – | pH 1.3 | relative to: compound over DTPA, higher = weaker binding | ligand concentration ratio | 5 fold |
| AWSHPQFEKGGGSGGG | Kelch domain-containing protein 2 | native mass spectrometry | peptide, 200 mM ammonium acetate | 20 µM Kelch domain-containing protein 2, pH 7 | relative to: total Kelch domain-containing protein 2 signal | fraction of protein bound | 0.5% |
| CC12CC3CC1(C)C1(C)CC3(N)CC21C.Cl | Glutamate NMDA receptor; Grin1/Grin2a (Grin1/Grin2a, Rattus norvegicus, UniProt P35439+Q00959) | NMDA current unblock, whole-cell patch clamp | tsA201 cells | 10 µM, holding potential -60 mV, with: 100 µM NMDA plus 10 µM glycine | – | current recovery after washout | 94.9 ± 2.2% |
| DNMNT[pS]EDE (phospho-Ser6; pS = N[C@@H](COP(=O)(O)O)C(=O)O) | CTD nuclear envelope phosphatase 1 (CTDNEP1, Homo sapiens, UniProt O95476) | substrate, MESG-coupled phosphate release | – | 25 °C | – | kcat | > 1 s⁻¹ |
| cAMP | Potassium/sodium hyperpolarization-activated cyclic nucleotide-gated channel 2, C-terminal region (Hcn2, Mus musculus, UniProt O88703, R635A) | isothermal titration calorimetry | – | R635A, high-affinity site | – | stoichiometry | 0.35 ± 0.02 |
